Measurements gathered from unrelated publications.
Every numbered part comes from another study and shows a few of its results, in no order. Changes are numbered by the printed parent chain.
Sequence of UniProt Q9Y2K2 (whole entry, looked up): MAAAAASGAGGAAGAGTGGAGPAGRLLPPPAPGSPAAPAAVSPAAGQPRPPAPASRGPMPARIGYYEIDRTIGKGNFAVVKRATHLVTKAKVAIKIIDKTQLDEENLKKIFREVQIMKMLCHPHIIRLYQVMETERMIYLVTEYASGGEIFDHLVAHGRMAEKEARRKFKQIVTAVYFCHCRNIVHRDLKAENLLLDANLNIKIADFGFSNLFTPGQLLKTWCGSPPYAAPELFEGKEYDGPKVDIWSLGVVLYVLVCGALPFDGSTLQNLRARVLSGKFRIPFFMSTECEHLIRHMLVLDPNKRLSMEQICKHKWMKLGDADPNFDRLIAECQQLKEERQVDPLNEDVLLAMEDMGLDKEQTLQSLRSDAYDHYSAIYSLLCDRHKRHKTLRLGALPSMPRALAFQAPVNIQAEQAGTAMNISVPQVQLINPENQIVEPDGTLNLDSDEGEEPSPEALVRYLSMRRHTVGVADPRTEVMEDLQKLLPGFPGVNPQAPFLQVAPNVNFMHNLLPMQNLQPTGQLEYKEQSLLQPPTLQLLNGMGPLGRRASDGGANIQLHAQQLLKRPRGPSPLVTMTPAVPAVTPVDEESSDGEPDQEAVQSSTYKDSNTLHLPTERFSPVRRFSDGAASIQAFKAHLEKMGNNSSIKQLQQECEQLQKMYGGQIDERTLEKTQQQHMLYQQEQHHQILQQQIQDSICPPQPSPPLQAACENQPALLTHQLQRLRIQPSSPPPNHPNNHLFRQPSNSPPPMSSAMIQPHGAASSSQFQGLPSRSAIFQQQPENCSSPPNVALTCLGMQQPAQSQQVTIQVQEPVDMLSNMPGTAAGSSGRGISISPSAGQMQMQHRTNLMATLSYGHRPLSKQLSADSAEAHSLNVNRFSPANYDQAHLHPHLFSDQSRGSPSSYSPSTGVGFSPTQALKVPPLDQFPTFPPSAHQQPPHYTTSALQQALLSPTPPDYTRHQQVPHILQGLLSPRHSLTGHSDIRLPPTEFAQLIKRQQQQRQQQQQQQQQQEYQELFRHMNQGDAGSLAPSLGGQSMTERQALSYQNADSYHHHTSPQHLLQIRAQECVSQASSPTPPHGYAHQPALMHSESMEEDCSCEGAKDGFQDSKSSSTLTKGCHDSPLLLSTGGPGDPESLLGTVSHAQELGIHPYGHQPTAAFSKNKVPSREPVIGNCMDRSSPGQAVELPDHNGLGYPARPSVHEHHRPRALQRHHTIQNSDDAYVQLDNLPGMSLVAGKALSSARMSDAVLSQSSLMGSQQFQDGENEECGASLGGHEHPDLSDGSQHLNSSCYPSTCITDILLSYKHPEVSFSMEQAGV

Block 1 — target: CCNF, cyclin fold, Cln2 fusion (human); method: yeast growth competition, sequencing; sample: yeast; setting: strong parent motif; baseline: not given; reading: higher = stronger binding; endpoint: normalised enrichment score; starting sequence: viral docking peptide; YKVKRRLVFGADD
Change = YKVKRRLGFGADD [V8G]; result = 8.33
Change = YKVKRRLVFGNDD [A11N]; result = 8.63
Change = YKFKRRLVFGADD [V3F]; result = 8.46
Change = YKVKRRLVFGYDD [A11Y]; result = 8.72
Change = YKVKRRLVFPADD [G10P]; result = 8.24
Change = YKVKRRLVFQADD [G10Q]; result = 8.63
Change = YKVKRRLTFGADD [V8T]; result = 8.12
Change = YKVERRLVFGADD [K4E]; result = 6.81

Block 2 — read-out: peptide-MHC binding; molecule type: peptide; concentration: concentration not given; endpoint: binding
Target: HLA class I histocompatibility antigen, C alpha chain, allele C*04:01 (Homo sapiens, UniProt P10321)
Sequence = RAMRMVYYL; result = inactive
Sequence = MTFPVSLEY; result = inactive
Sequence = AQRAAGPSV; result = inactive
Sequence = MPAIFFSIV; result = inactive
Sequence = LLDEPTNHL; result = inactive
Sequence = RYWYFAAEL; result = active
Sequence = LFPELDCFF; result = inactive
Sequence = RFEAYGWQV; result = inactive

Other studies, line by line
Structure (SMILES) = Cn1cncc1[C@](O)(COc1ccc(C#N)cc1-c1ccc(OC(F)(F)F)cc1)c1ccc(C#N)cc1; target or system = SIK3 (Homo sapiens, UniProt Q9Y2K2); read-out = cell-free assay; method = competition with immobilised ligand; concentration = 1 µM; endpoint = remaining binding; result = 67%
Structure (SMILES) = CC[C@@H](C)c1nc2cc(Nc3ccnc4ccc(S(=O)(=O)C(C)C)cc34)ccc2s1; target or system = L929; read-out = necroptosis protection; method = CCK-8; concentration = 0.156 µM; added = TNF-α plus zVAD; endpoint = viability; result = 19.5%

Excerpt of the above (block 2):
Sequence = MPAIFFSIV; result = inactive
Sequence = MTFPVSLEY; result = inactive
